Published values of several laboratories.
Numbered parts are unrelated; each lists some results of a single study. Changes are numbered by the printed parent chain.
UniProt Q9C5X0, sequence (whole entry, looked up): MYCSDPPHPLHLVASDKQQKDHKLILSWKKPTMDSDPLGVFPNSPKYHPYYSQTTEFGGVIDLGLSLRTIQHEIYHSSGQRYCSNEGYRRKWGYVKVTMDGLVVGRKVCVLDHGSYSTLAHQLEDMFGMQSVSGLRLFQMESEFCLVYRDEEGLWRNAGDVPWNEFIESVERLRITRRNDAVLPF
UniProt Q9C5W9, sequence (whole entry, looked up): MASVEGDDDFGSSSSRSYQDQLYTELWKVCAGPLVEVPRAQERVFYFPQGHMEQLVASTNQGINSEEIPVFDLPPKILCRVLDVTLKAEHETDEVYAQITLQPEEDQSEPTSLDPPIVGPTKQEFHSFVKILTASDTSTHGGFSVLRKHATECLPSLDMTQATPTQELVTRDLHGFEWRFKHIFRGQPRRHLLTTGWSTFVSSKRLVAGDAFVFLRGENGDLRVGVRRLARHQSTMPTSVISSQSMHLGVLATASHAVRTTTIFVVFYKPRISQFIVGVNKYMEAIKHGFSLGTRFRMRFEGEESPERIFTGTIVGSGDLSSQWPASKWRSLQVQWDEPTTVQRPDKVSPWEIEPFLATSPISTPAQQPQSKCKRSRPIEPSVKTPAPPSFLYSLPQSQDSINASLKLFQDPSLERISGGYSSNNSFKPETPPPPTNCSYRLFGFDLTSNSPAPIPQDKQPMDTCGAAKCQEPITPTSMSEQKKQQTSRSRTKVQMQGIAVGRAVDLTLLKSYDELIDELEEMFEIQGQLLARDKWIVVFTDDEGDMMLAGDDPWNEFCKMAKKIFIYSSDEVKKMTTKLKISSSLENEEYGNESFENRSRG
UniProt Q9C8N7, sequence (whole entry, looked up): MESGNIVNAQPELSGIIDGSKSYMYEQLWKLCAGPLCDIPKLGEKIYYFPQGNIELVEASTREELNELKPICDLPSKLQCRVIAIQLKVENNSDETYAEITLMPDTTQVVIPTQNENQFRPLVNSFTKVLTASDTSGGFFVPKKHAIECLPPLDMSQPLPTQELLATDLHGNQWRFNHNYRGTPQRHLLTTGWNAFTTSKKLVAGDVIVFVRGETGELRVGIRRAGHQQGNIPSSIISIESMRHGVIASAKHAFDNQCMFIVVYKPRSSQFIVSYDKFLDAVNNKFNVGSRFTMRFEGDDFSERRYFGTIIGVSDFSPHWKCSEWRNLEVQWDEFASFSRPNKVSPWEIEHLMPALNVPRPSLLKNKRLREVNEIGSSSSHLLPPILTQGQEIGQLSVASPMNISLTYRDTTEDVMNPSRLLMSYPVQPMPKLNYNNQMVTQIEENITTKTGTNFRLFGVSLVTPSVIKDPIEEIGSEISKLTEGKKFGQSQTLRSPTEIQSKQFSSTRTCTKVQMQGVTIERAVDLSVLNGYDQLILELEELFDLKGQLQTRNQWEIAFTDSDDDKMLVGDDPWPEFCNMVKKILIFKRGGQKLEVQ
UniProt Q9FKM7, sequence (whole entry, looked up): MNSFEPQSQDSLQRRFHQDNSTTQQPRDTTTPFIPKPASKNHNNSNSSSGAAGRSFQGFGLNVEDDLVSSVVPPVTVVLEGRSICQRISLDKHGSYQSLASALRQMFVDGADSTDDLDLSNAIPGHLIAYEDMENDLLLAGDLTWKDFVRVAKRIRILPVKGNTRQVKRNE
UniProt Q8RYC6, sequence (whole entry, looked up): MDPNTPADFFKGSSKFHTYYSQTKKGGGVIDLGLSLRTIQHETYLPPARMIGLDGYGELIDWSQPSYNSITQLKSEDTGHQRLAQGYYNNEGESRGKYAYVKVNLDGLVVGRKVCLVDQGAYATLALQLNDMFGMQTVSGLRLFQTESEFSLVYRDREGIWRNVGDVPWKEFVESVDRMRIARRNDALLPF
UniProt Q9FGV1, sequence (whole entry, looked up): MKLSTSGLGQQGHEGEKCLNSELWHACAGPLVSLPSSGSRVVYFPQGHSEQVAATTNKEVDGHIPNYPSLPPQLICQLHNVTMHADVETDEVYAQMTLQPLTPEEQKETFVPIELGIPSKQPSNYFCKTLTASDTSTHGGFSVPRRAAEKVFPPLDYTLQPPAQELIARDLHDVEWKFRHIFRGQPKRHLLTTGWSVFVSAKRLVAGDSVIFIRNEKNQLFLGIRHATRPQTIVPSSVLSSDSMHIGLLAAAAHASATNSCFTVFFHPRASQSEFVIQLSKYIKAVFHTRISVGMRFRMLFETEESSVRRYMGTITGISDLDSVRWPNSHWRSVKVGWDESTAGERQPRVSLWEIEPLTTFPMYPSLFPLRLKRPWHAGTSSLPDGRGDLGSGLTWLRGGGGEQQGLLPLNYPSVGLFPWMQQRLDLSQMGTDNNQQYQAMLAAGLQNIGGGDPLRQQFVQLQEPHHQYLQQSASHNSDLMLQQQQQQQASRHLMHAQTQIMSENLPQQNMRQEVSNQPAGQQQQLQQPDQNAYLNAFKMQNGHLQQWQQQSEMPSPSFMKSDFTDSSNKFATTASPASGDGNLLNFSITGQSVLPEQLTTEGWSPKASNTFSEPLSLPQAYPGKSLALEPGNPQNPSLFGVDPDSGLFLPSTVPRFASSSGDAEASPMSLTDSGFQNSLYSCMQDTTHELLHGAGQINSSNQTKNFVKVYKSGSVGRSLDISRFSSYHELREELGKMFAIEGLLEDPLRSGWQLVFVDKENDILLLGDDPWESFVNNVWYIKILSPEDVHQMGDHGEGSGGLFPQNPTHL

Block 1
Molecule: B1 (IAA6)
Technique: two-hybrid
Direction: higher = firmer interaction
Quantity: positive tests
B1: IAA6 (Arabidopsis thaliana, UniProt Q38824); chain MAKEGLALEITELRLGLPGDNYSEISVCGSSKKKKRVLSDMMTSSALDTENENSVVSSVEDESLPVVKSQAVGWPPVCSYRRKKNNEEASKAIGYVKVSMDGVPYMRKIDLGSSNSYINLVTVLENLFGCLGIGVAKEGKKCEYIIIYEDKDRDWMLVGDVPWQMFKESCKRLRIVKRSDATGFGLQQD
ARF8 699-811 (Arabidopsis thaliana, UniProt Q9FGV1); baseline: out of 4 tests: 1
ARF18 482-602 (Arabidopsis thaliana, UniProt Q9C5W9); baseline: out of 2 tests: 0
IAA33 (Arabidopsis thaliana, UniProt Q9FKM7); baseline: out of 4 tests: 1
ARF22 498-598 (Arabidopsis thaliana, UniProt Q9C8N7); baseline: out of 4 tests: 0
IAA34 (Arabidopsis thaliana, UniProt Q9C5X0); baseline: out of 4 tests: 3
IAA32 (Arabidopsis thaliana, UniProt Q8RYC6); baseline: out of 4 tests: 0

Block 2
Target: Fragile X messenger ribonucleoprotein 1, C-terminal low-complexity region (Fmr1, Mus musculus, UniProt P35922)
Technique: RNA Bind-n-Seq
Form: RNA
Medium: in vitro
Concentration: 200 nM
Notes: whole 134-nt RNA, ends assumed
Added: 150 mM LiCl
Baseline: input library
Direction: higher = stronger binding
Quantity: log2 enrichment
Each molecule: 7-deaza-guanosine replaces G
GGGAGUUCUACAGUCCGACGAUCUGUGCUACACAUCGUAUGUACCGAAUCGGGGUUUUUUUGGGGUUUUUUUGGGUUUUUUUGGGGAAAGUAUUAUGUUACGCCGUUCGGAUCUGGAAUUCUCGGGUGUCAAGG: 2.04
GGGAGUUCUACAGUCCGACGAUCGCAAGAAGUAAAAACAAAUGGAAAUGCUUCGGAUAGUGGCAGGGGUGGGGGUUGCUAAGGAAAGGGUGGGAUGGGAGUGGGUAAAGAGUUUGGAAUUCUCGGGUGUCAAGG: 1.31
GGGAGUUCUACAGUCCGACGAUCUUUGAGGUCAAACGCCGCGGGGAACUGCAGCUGAUUAAGAUCUUCCAAUCCUCGGUGUUUGAGGCCUUCCUCAAGGGCAGCACGCUGGAAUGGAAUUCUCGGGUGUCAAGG: -2.61
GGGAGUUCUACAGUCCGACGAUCUGGCCCUGGUGGCAUGCGGGGAGGAAGAGGUGGCCUCAUGGAUCGUGGUGGUCCCGGUGGAAUGUUCAGAGGUGGCCGUGGUGGAGACCGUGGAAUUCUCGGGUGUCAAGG: -0.69
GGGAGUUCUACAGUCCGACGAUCAGUCCUGUGCUACACAUCGUAUGUACCGAAUCGGGGCCCCCGGGCCCCCGGCCCCCGGAAAGUAUUAUGUUACGCCGUUCGGAUCUGCACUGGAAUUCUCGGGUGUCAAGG: -2.68
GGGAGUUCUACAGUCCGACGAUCAGUCCUGUGCUACACAUCGUAUGUACCGAAUCGGCCCCGGGCCCCGGGGCCCCGGGGAAAGUAUUAUGUUACGCCGUUCGGAUCUGCACUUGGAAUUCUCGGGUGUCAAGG: -3.33
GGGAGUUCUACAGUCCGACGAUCAGUCCUGUGCUACACAUCGUAUGUACCGAAUCGGGUUUUUGGGUUUUUGGGUUUUUGGAAAGUAUUAUGUUACGCCGUUCGGAUCUGCACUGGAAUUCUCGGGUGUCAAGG: -1.26
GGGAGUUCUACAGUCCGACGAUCAAGUCCUGUGCUACACAUCGUAUGUACCGAAUCGGAAAGGAAAAAGGAAAAAAAGGAAAGUAUUAUGUUACGCCGUUCGGAUCUGCACUUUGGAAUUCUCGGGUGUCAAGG: -0.937
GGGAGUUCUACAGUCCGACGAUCCUCAAGUCCUGUGCUACACAUCGUAUGUACCGAAUCGGGGCGGGCGGGGCGGGGAAAGUAUUAUGUUACGCCGUUCGGAUCUGCACUUCCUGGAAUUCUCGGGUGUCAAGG: -0.885
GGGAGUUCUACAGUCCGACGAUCUAACUUUAGAGGAGGAUCUGAUGGAUAUGGCAGUGAACGUGGAUUUGGGGAUGGCUAUAAUGGGUAUGGAGGAGGACCUGGAGGUGGCAAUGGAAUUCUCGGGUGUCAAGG: 0.286
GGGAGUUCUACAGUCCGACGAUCCCUCAAGUCCUGUGCUACACAUCGUAUGUACCGAAUCGGUUGGUUGGGUUGGAAAGUAUUAUGUUACGCCGUUCGGAUCUGCACUUCCAGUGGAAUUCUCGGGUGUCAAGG: 0.335

Block 3
Target: CCND2, cyclin fold, Cln2 fusion (human)
Technique: yeast growth competition, sequencing
Medium: yeast
Notes: strong parent motif
Baseline: not given
Direction: higher = stronger binding
Quantity: normalised enrichment score
Starting sequence: PKN2 docking peptide (human); VSAVRKLDFSDTM; partner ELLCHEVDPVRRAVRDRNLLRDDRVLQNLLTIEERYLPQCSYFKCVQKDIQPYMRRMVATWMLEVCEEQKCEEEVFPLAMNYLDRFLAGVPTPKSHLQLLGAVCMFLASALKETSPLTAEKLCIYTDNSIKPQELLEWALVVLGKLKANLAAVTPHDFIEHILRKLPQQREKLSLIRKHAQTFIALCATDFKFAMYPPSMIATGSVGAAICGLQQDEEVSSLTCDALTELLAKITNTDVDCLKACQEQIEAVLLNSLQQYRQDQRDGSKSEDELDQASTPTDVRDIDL
VDAVRKLDFSDTM [S2D]: 1.16
VSAWRKLDFSDTM [V4W]: 0.147
VSAVRKTDFSDTM [L7T]: 0.123
VSAVRKLDFLDTM [S10L]: 2.58
VSALRKLDFSDTM [V4L]: 0.614
VSAVRKLDFSTTM [D11T]: 2.92
VSAVRKLIFSDTM [D8I]: 1.47
VSKVRKLDFSDTM [A3K]: 1.04
VSAVRFLDFSDTM [K6F]: 1.91
VSAVRKLDFSHTM [D11H]: 2.45
VSAVRKLDFPDTM [S10P]: 1.95
VSAVRKLDFSCTM [D11C]: 3.17
VSASRKLDFSDTM [V4S]: 1.9
VSAVRKLMFSDTM [D8M]: 0.342
VSAVRKLDFSYTM [D11Y]: 2.5
VSAVRKLDNSDTM [F9N]: 0.177
VIAVRKLDFSDTM [S2I]: 1.74
VSAVRKLDFHDTM [S10H]: 2.48
VSWVRKLDFSDTM [A3W]: -0.0126
VSAVRKLDFIDTM [S10I]: 1.85
VSAVRKLDFSDDM [T12D]: 3.81
VSAPRKLDFSDTM [V4P]: 0.541
VSAVRKLDFSDHM [T12H]: 3.56
VSAVRKLDFSDPM [T12P]: 4.01
VSAVRQLDFSDTM [K6Q]: 1.92

Block 4
Target: RING finger protein unkempt homolog, zinc fingers 1-6, GST-SBP tag (UNK, Homo sapiens, UniProt Q9C0B0, residues 30-357)
UniProt Q9C0B0, sequence (30-357, looked up): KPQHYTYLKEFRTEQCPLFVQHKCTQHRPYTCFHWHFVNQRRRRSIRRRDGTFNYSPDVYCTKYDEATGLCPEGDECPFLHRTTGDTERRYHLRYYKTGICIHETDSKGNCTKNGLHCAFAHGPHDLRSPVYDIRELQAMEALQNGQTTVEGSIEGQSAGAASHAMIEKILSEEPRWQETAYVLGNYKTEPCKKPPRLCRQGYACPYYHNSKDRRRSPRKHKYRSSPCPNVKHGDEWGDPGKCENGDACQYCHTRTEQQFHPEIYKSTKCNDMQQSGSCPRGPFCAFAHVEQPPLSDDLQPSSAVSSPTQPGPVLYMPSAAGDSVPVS
Technique: RNA Bind-n-Seq
Form: RNA
Medium: in vitro
Concentration: not given
Notes: RNA with constant flanks, human and mouse sites, ends assumed
Baseline: input RNA pool
Direction: higher = stronger binding
Quantity: bound/input enrichment
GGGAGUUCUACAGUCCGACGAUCAUUUUUGGAAAGGUUCAAGGGGUGUUUUUCCGCAAGUACACUCAGGCUGAGGGUAAAAAGCUAGGUUUGGUGGGCUGGGUUCAGAACACCGACCGGGGCACCGUGCAAGGGCAACUGCAGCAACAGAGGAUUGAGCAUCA: 0.312 ratio
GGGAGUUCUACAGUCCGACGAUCUCCUUUGAAGGGAUUGGUGGCAAUCAAGACAAAGUGGACUGGUGUAACCCUGGGAUGGGAAAUCCCAUGAUUCACAGGCCAAUGUCUGACCCAGGAGUGUUUUCACAGCAUCAAGCAAUGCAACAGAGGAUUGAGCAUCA: 0.114 ratio
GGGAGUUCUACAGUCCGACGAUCGUUGCAUUUACAACAAGAAUUUAUCAUCCAAAUAUUAACAGUAAUGGCAGCAUUUGUCUUGAUAUUCUACGAUCACAGUGGUCUCCAGCACUAACUAUUUCAAAAGUACUCUUGUCCAUCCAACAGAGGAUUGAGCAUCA: 0.178 ratio
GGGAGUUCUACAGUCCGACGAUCACAAAGCACUUCAUCUAUUUUUACUUGGGUCAAGUUGCAAUCCUCCUCUUCAAGUCGGGCUAGGUGGCCGAGGCGAAGGUGUCCGUGGCGGCGGCAGCGAUGGCAAGCAGGCGGCGUUGCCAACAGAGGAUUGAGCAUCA: 0.328 ratio
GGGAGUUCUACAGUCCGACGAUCGGGUCGCUGGCUCUGCUGCUGCCGCCGGCGAAGGAGGAGGCGUUGCCGGUUUUCUGAGUUUAACCAGUAAUGCCAUUCAGUUGCCAAUCUCAAGCAAAGCAAACAUAAGCCAGUUUUAAUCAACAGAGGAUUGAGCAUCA: 0.139 ratio
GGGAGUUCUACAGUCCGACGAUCCUGGGGGAGGGCAUCUCCUGCUCCCUCCACCCUCCCAUUCACUCCCCCACCUUCCCCAAUUUUAGUUUCAUGCAAUAAAAAGGCCAAACUUUUAUUCCGUAAAACAUGAAGGACAAAACUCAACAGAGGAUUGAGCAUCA: 0.719 ratio
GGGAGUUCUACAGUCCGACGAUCACAUUUUUAUGGUCUCCUAUGCCUGAACAUUAUGUGGAAGGAUCAACAGUCAAUUGUGUACUAGCAUUUCAAGGAUAUUACCUUCCAAAUGAUGAUGGAGAAUUUUAUCAGUUCUGUUACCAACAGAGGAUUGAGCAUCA: 0.154 ratio
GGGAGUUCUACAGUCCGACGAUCAAUUUGAUCUGGCUUCCAUUUGUCCCCCUCAUUUCCCAAAUGUUUAAAUGUAUUGGAUUUGGAUUCUCAAUGUAUAAGUUGCCUUAUCUGUUAAUGUCUAUCUUCUGUCUCUUUAAUUUUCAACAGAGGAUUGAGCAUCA: 0.966 ratio
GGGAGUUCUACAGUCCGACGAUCAGACAUUCAACACCUUUACAUUUAGCAGCUGGUUAUAAUAAUUUAGAAGUUGCAGAGUAUUUGUUACAACACGGAGCUGAUGUGAAUGCCCAAGACAAAGGAGGACUUAUUCCUUUACAUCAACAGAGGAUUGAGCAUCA: 0.574 ratio
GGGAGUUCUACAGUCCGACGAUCUCCCACAUGAUGCUGGCCUUUACGAUGUGGAACCCUUGGAUUGCUAUGUGUCUUCUGGGACUCUCCUACUCAUUGCUUGCCUGUGCAUUGUGGCCAAUGGUGGCAUUUGUAGUUCCUGAACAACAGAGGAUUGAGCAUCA: 0.196 ratio
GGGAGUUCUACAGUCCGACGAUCGAGGUCCUGCAGUGGCGCCAGUCCCUGGACAAGCUUCUCCAGAACAGCUAUGGAUUUGCCAGCUUCAAAAGUUUCCUGAAGUCUGAAUUCAGUGAGGAAAACCUUGAGUUCUGGGUUGCCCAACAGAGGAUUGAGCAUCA: 0.276 ratio
